Experimental data from different studies.
Every numbered part comes from another study and shows a few of its results, in no order. Positions count from the first letter of the parent shown.

Sample 1 — technique: RNA Bind-n-Seq; molecule type: RNA; matrix: in vitro; tested at: 100 nM; baseline: input RNA pool; direction: higher = stronger binding
Target: RING finger protein unkempt homolog, zinc fingers 1-6, SBP tag (UNK, Homo sapiens, UniProt Q9C0B0, residues 30-357)
UniProt Q9C0B0, sequence (30-357, looked up): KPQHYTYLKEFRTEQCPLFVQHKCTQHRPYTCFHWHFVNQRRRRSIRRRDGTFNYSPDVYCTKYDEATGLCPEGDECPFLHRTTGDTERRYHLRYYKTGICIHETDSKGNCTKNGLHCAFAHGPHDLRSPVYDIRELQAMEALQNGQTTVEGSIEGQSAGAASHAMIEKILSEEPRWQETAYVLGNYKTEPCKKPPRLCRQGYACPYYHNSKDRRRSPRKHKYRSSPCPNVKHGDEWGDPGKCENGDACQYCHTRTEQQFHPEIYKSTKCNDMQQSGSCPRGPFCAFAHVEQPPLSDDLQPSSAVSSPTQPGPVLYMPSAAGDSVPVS
Setting: RNA with constant flanks, vertebrate orthologous sites, ends assumed
All sequences stand within: GGGAGUUCUACAGUCCGACGAUC … CAACAGAGGAUUGAGCAUCA
Sequence | bound/input enrichment
UAUUAGUGUCGUACCAGCCUAUUAACCUCUCGUCUGUGCACAGCUUCAAAUGUUACUGUCUAGUUAGAUUUUUAUUUAAAAUAUGAAAAACUGCUUUUCCCAAGACGUUUUUUAAAAACA | 1.61 ratio
UUUUAUUGAUCAGGUCUGUAAAUGUGUACUAAAAAAAUCAGAGUUUAUUUAUGAACUGAAUGGUUUAUUUAAAAAGAAGGUCUUUCCUCAUCCAUAUUGUGGUAUGCAUUAAUUCCAUUU | 0.197 ratio
CAUUGUACCCUGCUGUAUAAUAAACAAUCUUAGACAUUUAUCAGCUGUUGAUACAAAUGUUAGUCCCUAACCACUUUUUAUAUGUUUUAAAUUUUUGAAAUUCAAGUGUACCUGCCAUAA | 2.27 ratio
GCACAUGCCGCUAUCACCAAAAGCAAAUUGUCAUUUUUCAGAUAUCAUUCAGAGCCGUUUUAGUGUUUCCUACUCCCUGCCCUUCCCAUUACUUUCAAUGAUGAAAGUUCUCCUCUGACA | 1.16 ratio
AACCUCCUGAACGUUUAGCUUUCAAGUUGUGGCUGUUUUAGAUACUGGUUUUAUUUUCUUUAGCAUUUUUCCCUGUUUCCCAUCUUCUCCUCCCCUGUUCCCAAGGUUUGACUCAUGGAU | 4.82 ratio
UAUAAUUAUGAAAAUCUAAAGGAUUUUUAAUGUUUAAUUUCCCCCAGCAUAUAUAUUAAGACCUCUUUUUUUUCCAGGCAGAUCAUUCAGAGUGUGCGAGUGUGUGUGCACAUGUUACAA | 0.703 ratio
UGUCUUGGUUUGGGGUAGAGGGGAGGGAGGGGCAGGACAGUGUGGAAUCUCUAGGGUGUAUGCAUAGGUAGCCUACACGGUUAGUUCUAAUUGGGCCUUUAUGUUAAAAACCUCUGGGGG | 1.34 ratio
CCCGCACGCCCCCUGGGAGGGCGUGGGGGAGGGGAGCCUGAUGACUCAGCUGGUCCAAUACGGUACUUUAUUUCCUUUUUUUUUUAAAUCACUGUAUUUAUUAUGACAAUGGUGACUCCC | 0.362 ratio
UCUCUCACAUAACUGAGUCCAAAAUUGCUAUGAGGGUUUGAAACAUUCAUUAGUUUUGUGUAGAACUACACUGUCAGGUGCUCAAAUACCAUCAUAGCAAGAUCAAAUACCAUCACAGUA | 0.477 ratio
UGAGGGAGAGAUUUCUGUGCUUUCUCAUAUUUAAUUUGUUGUUUUUAAGAUAUUCCAACCUAGAGUUUUUGAUGGAACUGAUAUAUUGAUAGUUCUCACCUAAGUCCUUUUAUAAAGAAU | 1.28 ratio
UACUAGUAUCCUACCAGCCUACCAACCUCGCGUCUGUGCACAGCUUCAAACGUUACCGUCUAGCUAGAUUUUUAUUUAAAAUAUGAAAAACUGCUUUUCCCAAGACGUUUUUUAAAAACA | 1.33 ratio

Sample 2 — technique: universal PBM; molecule type: double-stranded DNA, one strand shown; matrix: in vitro; tested at: 600 nM; direction: higher = stronger binding
Target: Sal-like protein 4, full length isoform A (SALL4, Homo sapiens, UniProt Q9UJQ4, residues 1-1053)
UniProt Q9UJQ4, sequence (whole entry, looked up): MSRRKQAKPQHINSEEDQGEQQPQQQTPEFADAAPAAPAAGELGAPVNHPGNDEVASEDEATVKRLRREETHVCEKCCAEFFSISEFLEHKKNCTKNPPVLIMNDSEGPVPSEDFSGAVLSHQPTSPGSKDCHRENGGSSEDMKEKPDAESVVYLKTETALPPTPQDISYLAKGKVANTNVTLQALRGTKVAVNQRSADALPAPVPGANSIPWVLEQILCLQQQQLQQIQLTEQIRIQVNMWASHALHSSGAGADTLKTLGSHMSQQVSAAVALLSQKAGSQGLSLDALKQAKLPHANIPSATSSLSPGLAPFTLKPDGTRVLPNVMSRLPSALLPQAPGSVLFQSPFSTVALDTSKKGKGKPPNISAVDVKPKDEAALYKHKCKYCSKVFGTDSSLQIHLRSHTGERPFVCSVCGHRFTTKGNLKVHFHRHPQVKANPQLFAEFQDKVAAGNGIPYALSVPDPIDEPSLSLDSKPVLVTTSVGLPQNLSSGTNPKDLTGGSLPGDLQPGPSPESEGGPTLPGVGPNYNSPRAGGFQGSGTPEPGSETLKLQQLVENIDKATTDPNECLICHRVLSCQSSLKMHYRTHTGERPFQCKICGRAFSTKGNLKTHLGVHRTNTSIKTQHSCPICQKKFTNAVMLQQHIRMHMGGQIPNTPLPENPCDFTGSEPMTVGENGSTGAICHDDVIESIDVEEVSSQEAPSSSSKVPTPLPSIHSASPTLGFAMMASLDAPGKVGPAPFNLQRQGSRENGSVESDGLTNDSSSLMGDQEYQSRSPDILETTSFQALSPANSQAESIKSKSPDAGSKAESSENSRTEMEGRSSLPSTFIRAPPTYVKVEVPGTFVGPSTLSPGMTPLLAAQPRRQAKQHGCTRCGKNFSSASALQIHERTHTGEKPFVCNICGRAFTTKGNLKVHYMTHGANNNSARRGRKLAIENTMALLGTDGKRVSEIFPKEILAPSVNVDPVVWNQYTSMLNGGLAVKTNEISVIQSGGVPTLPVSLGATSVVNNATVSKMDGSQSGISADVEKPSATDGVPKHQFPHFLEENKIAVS
Setting: 8-mer, flanks averaged, mean of replicates
Sequence | E-score
CACACAAG | 0.101
CGCCGCTC | -0.324
AAAGACAC | 0.0617
ACCAGAAG | 0.0414
CGTGCGGA | -0.21
AATTTCAG | 0.203
CGGACAAG | -0.15
CAAATCAA | 0.246
AACCTAGA | 0.0147
AAATTCTG | 0.223
ATCGTCTA | -0.00749
AGTTACCA | 0.0574
CGAAACGA | -0.017
CGACGGGA | -0.218
AATATCGT | 0.326
ATACCAAA | 0.204
ACTCAAAC | 0.0593
CCACCATC | -0.23
CTCATCGC | -0.0681

Sample 3 — technique: RNAcompete; molecule type: RNA; matrix: in vitro; tested at: 20 nM; setting: 7-mer, probes averaged, single round; baseline: mean of 7-mers; direction: higher = stronger binding
Target: PABPC1L2, full length, GST fusion (mouse, UniProt A0ABA7IW68)
Construct (chain): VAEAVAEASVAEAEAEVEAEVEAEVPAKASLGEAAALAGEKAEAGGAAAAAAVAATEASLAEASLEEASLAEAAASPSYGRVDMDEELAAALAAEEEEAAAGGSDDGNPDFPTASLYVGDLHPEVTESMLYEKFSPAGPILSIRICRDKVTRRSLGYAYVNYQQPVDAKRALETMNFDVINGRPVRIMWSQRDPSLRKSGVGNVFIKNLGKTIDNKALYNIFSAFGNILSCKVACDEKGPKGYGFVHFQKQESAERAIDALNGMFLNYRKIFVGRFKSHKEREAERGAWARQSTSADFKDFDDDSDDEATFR
Sequence | 7-mer Z-score
UCUUUUA | 0.385
UUCCCCA | -0.38
CGCUUGA | -0.179
UUUUGCU | -0.335
GCGGCAG | 0.175
UAGCCGA | -0.079
CCGUCAC | -0.229
GUACUGG | -0.0482
GACAACU | -0.00108
AUCCUCC | -0.365
UCAGAAU | -0.175
CUCGGCC | -0.164
CUACAAG | -0.0953
ACCAUUA | -0.141
AUUGAGU | -0.242
AAGGGAC | 0.356
GUGUCGA | -0.0409
AGGUAAC | 0.0134
UGUGUGG | -0.208
CUUGACU | -0.374
GGUUACG | -0.104
CCACGAC | -0.119
UUAAGCU | -0.291
AAGUUAG | 0.215
UCUAAUA | -0.188

Sample 4 — technique: RNA Bind-n-Seq; molecule type: RNA; matrix: in vitro; tested at: 365 nM; baseline: no-protein control; direction: higher = stronger binding
Target: RNA binding protein fox-1 homolog 2, RRM domain, GST-SBP tag (RBFOX2, Homo sapiens, UniProt O43251-10, residues 100-194)
Setting: natural RNA segment, single round, ends assumed
All sequences stand within: GGGAGUUCUACAGUCCGACGAUC … UGGAAUUCUCGGGUGCCAA
Construct (chain): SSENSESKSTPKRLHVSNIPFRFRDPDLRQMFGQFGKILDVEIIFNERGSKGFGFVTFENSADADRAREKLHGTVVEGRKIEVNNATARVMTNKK
Sequence | RBNS enrichment (R)
CUUUGCCGUGCACGACUGUUCCUGCAAUUGAUAUUGUGUGAAACCUGGGAGGGUGGUCUUUGGGUGUUCUCAGGGGCCAAUGGUAAUUUUUGGUUGGGGAGCCAGCUUGG | 1.78
GUUGGUAACGUGCUGCCAGCACAGGGCUGGGUGAUACGUACACCCUAAGCCGGGGGUGCCUGGGGCUGGGGGGCGCUCCUUGCAAUGCCCCUCCAGCCACAGGGCAGUGA | 0.306
CUGUCAUUACCAGUUGUGGUCCUAGCAUCUAACCCUGAAACCAUCCUAGGUGACAUUUUUAGAAUUAAUACUUAAAUGUUAAACAGGGGGAAAUGAAGCUUAAUCAUGGU | 0.354
CCUGUGCACUUCUAGAAUCCCAGCAGCCAAGAGCCGUUGGGGCAGGAGGGCCUGUGGUGACCUACUGCAUUGACCCACUCUGCCCCCGAGUGAACCGUGGAGCAGGCAGG | 0.264
CUGGGGCUGGGGCUGCCCACGUGUGGCCUCCGCUGGCUCUGCCUGCUCCUGCAACAGUGCGGUCCCUGCCCGGAGAACUCAGGAGGCCUGCAGAAGAGAACUGAUUGGUG | 0.714
AGUCUGCUCUUGUAUUUCUUUCCCUCCCCGAGAAGGGAGGGAGCCACUUUCAGGCCCUCCGGUGUGUUGCCUGGUAGGAUAACUGCUCCAAGCAGCUACCUACCUUGACU | 0.157
CUGGGAGUGGUUAUGUUGUAUCCCCAUCUUGGCUGGCUUCAGUUUUUGCUGUAGCCCUAGAGCACUUUGUUUGUGGGAGGCUGGCCUCUUGCCUACCUCCUUGCAUGGAC | 1.73
CUGGACCUGCACCAAAGCUGGCACCAGGGCUCGGAAGGUCUCUGAACUCAGAAGGAUGGCAUUUUUUGCAAGUUAAAGAAAAUCAGGAUCUGAGUUAUUUUGCUAAACUU | 0.561
CCUCCUCCCUGCCAGAUGACUGUCAUUGCCUCCACUCACCCUUCUGCUUGUCACUCGGCAGCUUAGGGCCUCUGCGCAGGAACCUGACUAGGACUAUGACCUCCACGGCG | 0.602
AAACCCUGAUAUUUUUACUGUGAAGGUGUUUUCAGUUGUUCUUAGGAAGAACAGCUGAUAGAAAUUCAAGAUUACUAUAAUGGCUGUUAUUAUACACAGCUCUGUAAACU | 0.671
AUCCCAACACUUUGGGAGGCUGAGGAGGAAGGAUAGCUUGAGGCCAGGAGUUUGAGACUAGACUGGGCAACAUAGCAAGACCCCGUCUCUACAAAGCACAACGAAAAACA | 0.453
UCUACUCGGGAGGCUGAGGCAGGAGAAUUACUUGAACCCAGGAGGCAGAGGCUGCAGUGAGCCGAGAUGGCACCACUGCACUCCAGCUUGUUGACAGAAUGAGACCCUGU | 0.281

Sample 5 — target: CCNA2, cyclin fold, Cln2 fusion (human); technique: yeast growth competition, sequencing; matrix: yeast; setting: strong parent motif; baseline: not given; direction: higher = stronger binding
Starting sequence: E2F1 docking peptide (human); PPVKRRLDFETDH; partner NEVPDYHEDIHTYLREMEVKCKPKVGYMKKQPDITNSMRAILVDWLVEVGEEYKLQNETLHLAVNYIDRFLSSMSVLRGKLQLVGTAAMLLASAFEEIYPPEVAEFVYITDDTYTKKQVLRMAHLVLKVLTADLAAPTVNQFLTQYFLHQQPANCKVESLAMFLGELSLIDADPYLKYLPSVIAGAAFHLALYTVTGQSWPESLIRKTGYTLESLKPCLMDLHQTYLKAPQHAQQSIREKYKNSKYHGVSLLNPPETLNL
Substitution | normalised enrichment score
K4A | 4.9
K4N | 5.12
P2Y | 6.25
R5E | -0.0496
D8S | 5.07
R6M | 5.63
R5N | 0.962
V3A | 6.01
E10C | 6.17
V3K | 2.06
K4G | 5
P2L | 6.13
D8R | 5.87
D8I | 5.26
L7M | 2.15
F9M | 5.3
R5A | 1.94
P2I | 6.2
L7S | -0.087
T11Y | 5.8
D12A | 6.39
D8W | 6.66
K4I | 4.98
D8N | 6
T11D | 6.06

Sample 6 — technique: protein-binding microarray; molecule type: double-stranded DNA, one strand shown; matrix: in vitro; tested at: 940 nM top; setting: 60-bp whole probe; added: salmon DNA 0.4 mg/ml; baseline: random background probes; direction: higher = stronger binding; all sequences stand within: GCCTAGCAC … GTCTTGATTCGCTTGACGCTGCTG
Target: Interferon regulatory factor 5, full length, phosphomimetic (IRF5, Homo sapiens, UniProt Q13568-2, residues 1-514, S451D/S453D/S456D/S462D)
Sequence | fitted relative affinity [z-score]
TCATTTTTGGAATGTCTTACTGTGCTA | 0.194
GACGGACTGGACTTTCTGGACGTGCTA | -0.439
TTCCCTCTGCTCCTCTTTTTGTGCTAG | 1.52
AACATACTGATTTCCACTTTGTGCTAG | 0.682
TTAGGTATAGGACTGGGTTAGTGCTAG | -0.125
TTAGGACCGGACTATCGGTTAGTGCTA | -0.305
GACGTTATCAGTTTCGAGACGTGCTAG | 4.18
TTAGATTCCGGGTATCGATTAGTGCTA | 3.51
GACGGTATGGACACTGGGGACGTGCTA | -0.262
GACGAAATGAGTATCGAGACGTGCTAG | 1.82
CTGCAGGTAGCAGAGACTTGGTGCTAG | -0.601
TGTGTTTTCATTTTATGACAGTGCTAG | 1.48
GTCAGCGGTGGTGTTCGGTGGTGCTAG | -0.58
GACGGGTTCCTTTTCCTGACGTGCTAG | 0.245
GACGGTATCCATTTCCTGACGTGCTAG | 0.575
GACGTTTTCCTTTCCCTGACGTGCTAG | 1.61
TTTGGTCTCCTACTGCTTTAGTGCTAG | 0.455
GACGGACTGGGTATCGGGTCGTGCTAG | 2.08
